Published values from different studies.
Values joined by “and” are separate records of one study, mostly repeats; a detail may differ. ± gives the spread as reported.
ERN1: Serine/threonine-protein kinase/endoribonuclease IRE1 (ERN1, Homo sapiens, UniProt O75460)
spsB: Signal peptidase IB (spsB, Staphylococcus aureus, UniProt Q5HHB9)
TRPM8: Transient receptor potential cation channel subfamily M member 8 (TRPM8, Homo sapiens, UniProt Q7Z2W7)
PRKCG: Protein kinase C gamma type (PRKCG, Homo sapiens, UniProt P05129)
LCK: Tyrosine-protein kinase Lck (LCK, Homo sapiens, UniProt P06239)
TNIK: TRAF2 and NCK-interacting protein kinase (TNIK, Homo sapiens, UniProt Q9UKE5)

COc1cc(N2CCN(C)CC2)ccc1Nc1nc(N)n(C(=S)NCc2c(Cl)cccc2Cl)n1 — remaining activity (ERN1; enzyme activity; 10 µM; reference: control): 2.4%
Cc1cc(NC(=O)c2cccc(NC(=O)/C=C/CN(C)C)c2)ccc1Nc1nccc(-c2cccnc2)n1 — remaining activity (Mitogen-activated protein kinase 8 (MAPK8, Homo sapiens, UniProt P45983); enzyme activity, inhibitor; 0.5487 µM, 18 h, unit not given, added: GSH 10 mM pre-incubation; reference: vehicle): 0.98
CNc1ncc2c(/C=C/C(=O)N3CCC(OC)CC3)nn(Cc3cccc(C(F)(F)F)c3)c2n1 — remaining activity (Mitogen-activated protein kinase kinase kinase kinase 2 (MAP4K2, Homo sapiens, UniProt Q12851); kinase activity, inhibitor; 1 µM; reference: untreated control): 80%
O=C(Nc1ccc(Nc2ccccc2)cc1)Nc1ccc(Cl)c(C(F)(F)F)c1 — remaining activity (spsB; peptidase activity, activator, FRET peptide cleavage; Staphylococcus aureus, membranes; 100 µM; reference: DMSO): 187%
CC(C)C(=O)Nc1n[nH]c2cc(-c3cccc(NS(=O)(=O)C4CC4)c3)ccc12 — remaining activity (Phosphatidylinositol 4-phosphate 5-kinase type-1 gamma (PIP5K1C, Homo sapiens, UniProt O60331); ADP-Glo; 1.52 nM; reference: DMSO): 103%
Cn1cc(/C=C2\C(=O)Nc3ccc(S(N)(=O)=O)cc32)c2ccccc21 — remaining activity (TRPM8; antagonist; HEK293; 5 µM; reference: control): 103 ± 9.27%
COc1cc(N2CCN(C)CC2)ccc1Nc1nc(N)n(C(=O)NCc2ccccc2S(=O)(=O)C(C)C)n1 — remaining activity (Rho-associated protein kinase 1 (ROCK1, Homo sapiens, UniProt Q13464); enzyme activity; 10 µM; reference: control): 9.6%
CO[C@H]1C[C@@H]2CC[C@@H](C)[C@@](O)(O2)C(=O)C(=O)N2CCCC[C@H]2C(=O)O[C@H]([C@H](C)C[C@@H]2CC[C@@H](O)[C@H](OC)C2)CC(=O)[C@H](C)/C=C(\C)[C@@H](O)[C@@H](OC)C(=O)[C@H](C)C[C@H](C)/C=C/C=C/C=C/1C — remaining activity (TRPM8; antagonist; HEK293; 5 µM; reference: control): 89.1 ± 16.3%
CC#CC(=O)N1CCC[C@H]1c1nc(-c2ccc(C(=O)Nc3ccccn3)cc2)c2c(N)nccn12 — remaining activity (Cyclin-dependent kinase 19, with cyclin C (CDK19, Homo sapiens, UniProt Q9BWU1); kinase activity, inhibitor, HotSpot radiometric; 100 nM, added: ATP 10 µM): 47.8 ± 0.4%
CCc1ccc(NC(=O)Nc2ccc(Cl)c(C(F)(F)F)c2)cc1 — remaining activity (spsB; peptidase activity, activator, FRET peptide cleavage; Staphylococcus aureus, membranes; 10 µM; reference: DMSO): 120%
CCN(CC)CCCC(C)Nc1ccnc2cc(Cl)ccc12 (stereo not shown) — remaining activity (Potassium voltage-gated channel subfamily KQT member 1, with KCNE1 (KCNQ1, Homo sapiens, UniProt P51787); IKs current, patch clamp; HEK293; 3 µM; reference: pre-drug current): 115%
NC/C(=C\F)COc1cccc(Cn2c(=S)[nH]c(=O)c3[nH]cnc32)c1 — remaining activity (Peroxidasin homolog (PXDN, Homo sapiens, UniProt Q92626); enzyme activity, inhibitor, Amplex UltraRed; 20 µM; reference: control): 24.4% and 23.2%
CC(C)Oc1cc(N2CCN(C)CC2)ccc1Nc1nc(N)n(C(=O)NCc2ccccc2S(=O)(=O)C(C)C)n1 — remaining activity (ERN1; enzyme activity; 10 µM; reference: control): 22%
O=C(Nc1ccc2c(c1)CCC2)Nc1ccc(Cl)c(C(F)(F)F)c1 — remaining activity (spsB; peptidase activity, activator, FRET peptide cleavage; Staphylococcus aureus, membranes; 10 µM; reference: DMSO): 123%
COc1cc(-c2cncc3c2CN(C)Cc2cc(N4CCNCC4)ccc2-3)cc(OC)c1OC — remaining activity (PRKCG; kinase activity; 1 µM, human enzyme, added: ATP 10 µM; reference: DMSO control): 100%
COc1cc(Nc2ncc3c(n2)-c2ccc(Cl)cc2C(c2c(F)cccc2OC)=NC3)ccc1C(=O)O — remaining activity (EPHB3; kinase activity; 1 µM): 92%
Cc1ccc(S(=O)(=O)/C=C/C#N)cc1 — remaining activity (TRPM8; antagonist; HEK293; 5 µM; reference: control): 94.3 ± 8.51%
COc1cc(NC(=O)Nc2ccc(Cl)c(C(F)(F)F)c2)cc(OC)c1OC — remaining activity (spsB; peptidase activity, activator, FRET peptide cleavage; Staphylococcus aureus, membranes; 50 µM; reference: DMSO): 170%
COc1cc(O)c(CC=C(C)C)c(O)c1C(=O)/C=C/c1ccc(O)cc1 — remaining activity (Thyroxine 5-deiodinase (DIO3, Homo sapiens, UniProt P55073, Y257F); 200 µM, 0.1667 h, added: T3; reference: DMSO): 0.394%
O=C(O)c1ccc(Nc2ncc3c(n2)-c2ccc(Cl)cc2C(c2c(F)cccc2F)=NC3)cc1 — remaining activity (human TBK1(h); kinase activity; 1 µM): 100%
CNc1cc2c(Nc3cccc(Br)c3)ncnc2cn1 — remaining activity (TRPM8; antagonist; HEK293; 5 µM; reference: control): 91.1 ± 16.8%
COc1cc(F)ccc1-c1ncnc(Nc2cccc(C[S@](C)(=N)=O)c2)n1 — remaining activity (LCK; kinase activity; 10 µM, added: 10 µM ATP): 51%
O=C(NC1CCC1)c1ccc2nc(-c3cccc(NS(=O)(=O)NCCN4CCCCC4)c3)cn2c1 — remaining activity (Receptor-type tyrosine-protein kinase FLT3 (FLT3, Homo sapiens, UniProt P36888, N841I); enzyme activity; 10 µM): 58%
c1cc(-c2cnn3cc(-c4ccc(OCCN5CCCCC5)cc4)cnc23)ccn1 — remaining activity (TRPM8; antagonist; HEK293; 5 µM; reference: control): 73.5 ± 7.67%
O=C(Nc1ccc(Cc2ccccc2)cc1)Nc1ccc(Cl)c(C(F)(F)F)c1 — remaining activity (spsB; peptidase activity, activator, FRET peptide cleavage; Staphylococcus aureus, membranes; 10 µM; reference: DMSO): 120%
C=CC(=O)N1CCC[C@@H](n2nc(-c3ccc(Oc4ccccc4)cc3)c3c(N)ncnc32)C1 — remaining activity (Insulin-like growth factor-binding protein 5 (Homo sapiens, UniProt P24593); 1 µM): 95.2%
O=C(Nc1ccc(Cl)c(C(F)(F)F)c1)N1CCc2ccccc2C1 — remaining activity (spsB; peptidase activity, activator, FRET peptide cleavage; Staphylococcus aureus, membranes; 10 µM; reference: DMSO): 116%
O=C1NC(=O)c2cc(Nc3ccc(F)cc3)c(Nc3ccc(F)cc3)cc21 — remaining activity (TRPM8; antagonist; HEK293; 5 µM; reference: control): 91.7 ± 4.41%
C=CC(=O)N1CCC[C@@H](n2nc(-c3ccc(Oc4ccccc4)cc3)c3c(N)ncnc32)C1 — remaining activity (TNIK; kinase activity, inhibitor, HotSpot radiometric; 100 nM, added: ATP 10 µM): 72.4 ± 0.9%
O=C1NC(=O)/C(=C/c2ccc(-c3ccc(F)cc3O)o2)S1 — remaining activity (RAC-beta serine/threonine-protein kinase (AKT2, Homo sapiens, UniProt P31751); enzyme activity; 10 µM): 40%
CNC(=O)c1cc(Oc2ccc(N(C)C(=O)Nc3ccc(Cl)c(C(F)(F)F)c3)cc2)ccn1 — remaining activity (spsB; peptidase activity, activator, FRET peptide cleavage; Staphylococcus aureus, membranes; 10 µM; reference: DMSO): 100%
Cc1cc(Nc2cc(N3CCN(C)CC3)nc(Sc3ccc(NC(=O)C4CC4)cc3)n2)[nH]n1 — remaining activity (PRKCG; kinase activity, KinaseProfiler; 0.03 µM, species human; reference: control): 87%
C=CC(=O)N1CCC([C@@H]2CCNc3c(C(N)=O)c(-c4ccc(Oc5ccccc5)cc4)nn32)CC1 — remaining activity (LCK; kinase activity, inhibitor, HotSpot radiometric; 100 nM, added: ATP 10 µM): 56.7 ± 0.5%
O=c1cc(N2CCNCC2)oc2c(-c3ccccc3)cccc12 — remaining activity (TRPM8; antagonist; HEK293; 5 µM; reference: control): 96.5 ± 4.09%
COc1ccc(F)cc1C(=O)NCc1ccc(-c2nn([C@@H](C)C(F)(F)F)c(N)c2C(N)=O)cc1 — remaining activity (TNIK; kinase activity, inhibitor, HotSpot radiometric; 100 nM, added: ATP 10 µM): 73.1 ± 0.1%
CCOc1nc(NC(=O)Cc2cc(OC)ccc2OC)cc(N)c1C#N — remaining activity (TRPM8; antagonist; HEK293; 5 µM; reference: control): 81.2 ± 4.74%
O=C(Nc1ccc(C(=O)Nc2ccccc2)cc1)Nc1ccc(Cl)c(C(F)(F)F)c1 — remaining activity (spsB; peptidase activity, activator, FRET peptide cleavage; Staphylococcus aureus, membranes; 50 µM; reference: DMSO): 111%
